# Published values pooled from the literature.
# Protocols differ between the studies behind these lines.
# U2AF2: U2AF2 148-342 (Homo sapiens, UniProt P26368)
# Sequence of UniProt P26368 (whole entry, looked up): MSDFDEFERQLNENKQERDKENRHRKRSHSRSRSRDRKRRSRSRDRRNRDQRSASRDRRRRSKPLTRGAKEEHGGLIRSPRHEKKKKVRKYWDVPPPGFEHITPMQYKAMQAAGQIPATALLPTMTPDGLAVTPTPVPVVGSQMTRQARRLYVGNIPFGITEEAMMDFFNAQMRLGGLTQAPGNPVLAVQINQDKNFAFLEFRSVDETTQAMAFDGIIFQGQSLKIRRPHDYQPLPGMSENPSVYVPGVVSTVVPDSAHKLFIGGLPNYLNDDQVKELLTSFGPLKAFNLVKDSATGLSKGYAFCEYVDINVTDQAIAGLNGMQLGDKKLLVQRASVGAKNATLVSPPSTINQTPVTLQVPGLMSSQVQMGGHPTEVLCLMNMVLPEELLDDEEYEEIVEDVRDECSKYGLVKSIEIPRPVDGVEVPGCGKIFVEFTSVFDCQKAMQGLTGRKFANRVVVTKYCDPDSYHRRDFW
# B1: Ph-p 1397-1577 (Drosophila melanogaster, UniProt P39769); chain GVGSGETNGLGTGGIVGVDAMALVDRLDEAMAEEKMQTEATPKLSESFPILGASTEVPPMSLPVQAAISAPSPLAMPLGSPLSVALPTLAPLSVVTSGAAPKSSEVNGTDRPPISSWSVDDVSNFIRELPGCQDYVDDFIQQEIDGQALLLLKEKHLVNAMGMKLGPALKIVAKVESIKEV
# B2: SPOP E47A (Homo sapiens, UniProt O43791); sequence looked up; chain MSRVPSPPPPAEMSSGPVAESWCYTQIKVVKFSYMWTINNFSFCREAMGEVIKSSTFSSGANDKLKWCLRVNPKGLDEESKDYLSLYLLLVSCPKSEVRAKFKFSILNAKGEETKAMESQRAYRFVQGKDWGFKKFIRRDFLLDEANGLLPDDKLTLFCEVSVVQDSVNISGQNTMNMVKVPECRLADELGGLWENSRFTDCCLCVAGQEFQAHKAILAARSPVFSAMFEHEMEESKKNRVEINDVEPEVFKEMMCFIYTGKAPNLDKMADDLLAAADKYALERLKVMCEDALCSNLSVENAAEILILADLHSADQLKTQAVDFINYHASDVLETSGWKSMVVSHPHLVAEAYRSLASAQCPFLGPPRKRLKQS
# B3: tsaC1 1-252 (Comamonas testosteroni, UniProt P94681); chain MNLNKQVAIVTGGASGFGAAIARRLSQAGAAVLVADLNAEGAQRMATELNAAGGRALGMACDVSKEADYRAVVDAAIAQLGGLHIVVNNAGTTHRNKPALAVTEDEFDRVYRVNLKSVYWSAQCALPHFAQQGHGVMVNVASTTGVRPGPGLTWYSGSKAAMINLTKGLALEFARSGVRINAVNPMIGETPMMADFMGMEDTPANRERFLSRIPLGRFTRPDDVASAVAFLASDDASFLTGVCLDVDGGRNI
# B4: parM (Escherichia coli, UniProt P11904); sequence looked up; chain MLVFIDDGSTNIKLQWQESDGTIKQHISPNSFKREWAVSFGDKKVFNYTLNGEQYSFDPISPDAVVTTNIAWQYSDVNVVAVHHALLTSGLPVSEVDIVCTLPLTEYYDRNNQPNTENIERKKANFRKKITLNGGDTFTIKDVKVMPESIPAGYEVLQELDELDSLLIIDLGGTTLDISQVMGKLSGISKIYGDSSLGVSLVTSAVKDALSLARTKGSSYLADDIIIHRKDNNYLKQRINDENKISIVTEAMNEALRKLEQRVLNTLNEFSGYTHVMVIGGGAELICDAVKKHTQIRDERFFKTNNSQYDLVNGMYLIGN
# B5: CRYAA G98R (Homo sapiens, UniProt P02489); sequence looked up; chain MDVTIQHPWFKRTLGPFYPSRLFDQFFGEGLFEYDLLPFLSSTISPYYRQSLFRTVLDSGISEVRSDRDKFVIFLDVKHFSPEDLTVKVQDDFVEIHRKHNERQDDHGYISREFHRRYRLPSNVDQSALSCSLSADGMLTFCGPKIQTGLDATHAERAIPVSREEKPTSAPSS
# B6: FCY1 (yeast, UniProt Q12178); sequence looked up; chain MVTGGMASKWDQKGMDIAYEEAALGYKEGGVPIGGCLINNKDGSVLGRGHNMRFQKGSATLHGEISTLENCGRLEGKVYKDTTLYTTLSPCDMCTGAIIMYGIPRCVVGENVNFKSKGEKYLQTRGHEVVVVDDERCKKIMKQFIDERPQDWFEDIGE
# B7: RAD52 1-418 K102A/K133A/K169A/R173A (Homo sapiens, UniProt P43351); chain MSGTEEAILGGRDSHPAAGGGSVLCFGQCQYTAEEYQAIQKALRQRLGPEYISSRMAGGGQKVCYIEGHRVINLANEMFGYNGWAHSITQQNVDFVDLNNGAFYVGVCAFVRVQLKDGSYHEDVGYGVSEGLASKALSLEKARKEAVTDGLKRALRSFGNALGNCILDADYLASLNKLPRQLPLEVDLTKAKRQDLEPSVEEARYNSCRPNMALGHPQLQQVTSPSRPSHAVIPADQDCSSRSLSSSAVESEATHQRKLRQKQLQQQFRERMEKQQVRVSTPSAEKSEAAPPAPPVTHSTPVTVSEPLLEKDFLAGVTQELIKTLEDNSEKWAVTPDAGDGVVKPSSRADPAQTSDTLALNNQMVTQNRTPHSVCHQKPQAKSGSWDLQTYSADQRTTGNWESHRKSQDMKKRKYDPS
# B8: SPOP S96R (Homo sapiens, UniProt O43791); sequence looked up; chain MSRVPSPPPPAEMSSGPVAESWCYTQIKVVKFSYMWTINNFSFCREEMGEVIKSSTFSSGANDKLKWCLRVNPKGLDEESKDYLSLYLLLVSCPKREVRAKFKFSILNAKGEETKAMESQRAYRFVQGKDWGFKKFIRRDFLLDEANGLLPDDKLTLFCEVSVVQDSVNISGQNTMNMVKVPECRLADELGGLWENSRFTDCCLCVAGQEFQAHKAILAARSPVFSAMFEHEMEESKKNRVEINDVEPEVFKEMMCFIYTGKAPNLDKMADDLLAAADKYALERLKVMCEDALCSNLSVENAAEILILADLHSADQLKTQAVDFINYHASDVLETSGWKSMVVSHPHLVAEAYRSLASAQCPFLGPPRKRLKQS
# B9: NINJ1 x (Homo sapiens, UniProt Q92982); sequence looked up; chain MDSGTEEYELNGGLPPGTPGSPDASPARWGWRHGPINVNHYASKKSAAESMLDIALLMANASQLKAVVEQGPSFAYYTTLVTLISISLVLQIVVGVLLIVLVKYDLNNPAKHAKLDQLNNAATILVFIIVVVNIFITAFGVQKPLMDMAPQQ
# B10: ph-p SAM 1397-1577 D16K/D17R (Drosophila melanogaster, UniProt P39769); sequence looked up; chain GVGSGETNGLGTGGIVGVDAMALVDRLDEAMAEEKMQTEATPKLSESFPILGASTEVPPMSLPVQAAISAPSPLAMPLGSPLSVALPTLAPLSVVTSGAAPKSSEVNGTDRPPISSWSVKRVSNFIRELPGCQDYVDDFIQQEIDGQALLLLKEKHLVNAMGMKLGPALKIVAKVESIKEV
# Sequence of UniProt Q10S82 (whole entry, looked up): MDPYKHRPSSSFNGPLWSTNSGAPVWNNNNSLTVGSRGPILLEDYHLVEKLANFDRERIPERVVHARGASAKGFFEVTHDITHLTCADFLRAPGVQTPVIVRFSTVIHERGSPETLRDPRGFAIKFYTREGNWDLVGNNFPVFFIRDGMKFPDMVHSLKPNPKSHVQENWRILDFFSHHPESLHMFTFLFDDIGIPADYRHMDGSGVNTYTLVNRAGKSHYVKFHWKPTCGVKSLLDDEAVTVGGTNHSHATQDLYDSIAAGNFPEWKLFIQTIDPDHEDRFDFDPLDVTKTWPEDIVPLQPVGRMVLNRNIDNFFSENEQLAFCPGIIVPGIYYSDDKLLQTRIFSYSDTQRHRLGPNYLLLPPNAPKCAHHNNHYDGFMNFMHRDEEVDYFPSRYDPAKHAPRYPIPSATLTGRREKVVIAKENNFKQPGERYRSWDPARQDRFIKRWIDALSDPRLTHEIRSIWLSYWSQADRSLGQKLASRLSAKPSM
# Sequence of UniProt Q88VS2 (whole entry, looked up): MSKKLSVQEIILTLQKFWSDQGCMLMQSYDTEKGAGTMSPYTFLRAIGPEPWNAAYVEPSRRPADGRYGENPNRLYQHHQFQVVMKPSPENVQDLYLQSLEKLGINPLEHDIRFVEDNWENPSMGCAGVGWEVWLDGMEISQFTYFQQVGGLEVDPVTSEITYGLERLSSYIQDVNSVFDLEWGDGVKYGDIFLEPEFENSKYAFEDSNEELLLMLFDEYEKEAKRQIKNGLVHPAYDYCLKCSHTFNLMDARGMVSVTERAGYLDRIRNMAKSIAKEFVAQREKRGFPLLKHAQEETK
Molecule,target or system,assay,system,setting,how to read,endpoint,result
B1 (Ph-p 1397-1577),itself,AUC,,"sedimentation velocity, self-association",,binding,binds
B2 (SPOP E47A),itself,negative-stain TEM,,,,binding,binds
B3 (tsaC1 1-252),itself,SEC,,,,binding,binds
B4 (parM),itself,negative stain electron microscopy,,,,binding,binds
"bfr (Azotobacter vinelandii, UniProt P22759)",itself,cryo-EM,,,,binding,binds
PSMD4 (human),CYB5R4 knockout human cells,"PP4 interaction, 3xFLAG-PP4C IP-MS",,concentration not given,reference: CYB5R4 KO over parental,log2 fold change,-0.15
UAUGUUUAU (ssRNA),U2AF2,sequencing of bound RNA,RNA,motif only,,Kd,4100 nM
B5 (CRYAA G98R),itself,SEC-MALS,,"1 hour h, pH 7.4, 37 °C",,binding,binds
B6 (FCY1),itself,fluorescence titration,,,,binding,binds
UCACUAUGU (ssRNA),U2AF2,sequencing of bound RNA,RNA,motif only,,Kd,840 nM
B7,itself,mass photometry,,,,binding,binds
"GYSSYGQSQSGYSQS (TAF15 52-66 (Homo sapiens, UniProt Q92804); N-acetyl/C-amide; sequence looked up)",itself,negative-stain TEM,peptide,peptide,,binding,binds
"OsCATC (Oryza sativa, UniProt Q10S82)",itself,cross-linking,,,,binding,binds
B8 (SPOP S96R),itself,negative-stain TEM,,,,binding,binds
B9 (NINJ1 x),itself,negative-stain EM,,,,binding,binds
B10 (ph-p SAM 1397-1577 D16K/D17R),itself,AUC,,,,binding,binds
"glyQ (Lactobacillus plantarum, UniProt Q88VS2)",itself,crystal structure,,,,binding,binds

# Excerpt of the above:
Molecule,target or system,assay,system,setting,how to read,endpoint,result
B3 (tsaC1 1-252),itself,SEC,,,,binding,binds
B6 (FCY1),itself,fluorescence titration,,,,binding,binds
